Published values gathered from unrelated publications.
“And” joins repeats or separate records; there may be more than shown. Numbers after ± are the reported error.

| Structure (SMILES) | assay | test system | conditions | how to read | measurement | result |
| --- | --- | --- | --- | --- | --- | --- |
| Cc1cc([C@H]2C[C@H]3[C@@H](C)SC(N)=N[C@@]3(c3ccc(F)cc3F)CO2)on1 | item: Aβx-40 | wild-type mouse, brain | subcutaneous, 50 mg/kg, 3 h |  | brain Aβ40 level | 1.1 ng/g |
| O=C1CCc2ccc(OCCCCN3CCN(c4cccc(Cl)c4Cl)CC3)cc2N1 | treatment discontinuation, Cox regression | human patients, CYP2D6 IM/PM/UM | dose not given, 6 months, genetic phenotype only | relative to: CYP2D6 normal metabolizers | hazard ratio | 1.75 |
| CC(c1cc2ccccc2s1)N(O)C(N)=O (stereo not shown) |  | human blood | 3 µM, added: A23187 |  | 5-HETE level | 2000 ± 1060 pg/mL |
| C=CCn1c(=O)c2cnc(Nc3ccc(N4CCN(C)CC4)cc3)nc2n1-c1ccc2c(n1)[C@@](O)(CC)CC2 |  | SUM149PT xenograft, BALB/c nude mice | oral, 80 mg/kg, day 33, once daily intermittent x 6 cycles |  | tumour growth inhibition | 91.4% |
| CCC(C)C(=O)NCC(=O)O (stereo not shown) | binding, MIDAS equilibrium dialysis LC-MS | A2AR-BRIL thermostabilized | concentration not given | relative to: no-protein control | log2 fold change | -0.789 |
| Cc1noc(C)c1-c1cc(C(O)(c2ccccn2)c2ccccn2)c2nc(C3CC3)[nH]c2c1 | item: HEXIM1 expression | human, peripheral blood | 4 mg, day 8, 1604 study |  | maximum induction | 61% |
| CN[C@@H]1COc2c(S(=O)(=O)NC(=O)Nc3c4c(cc5c3CCC5)CCC4)cnn2C1 | item: IL-1β | human participants, whole blood ex vivo | 1800 mg single dose, 4 h, added: LPS/ATP | relative to: baseline | inhibition | 99.9% |
| N#Cc1ccc2c(-c3ccncc3)c(-c3ccc(F)cc3)nn2c1 | kinase binding, competitor, MIB/MS competition, item: CAK1 | Candida albicans cell lysate | 10 µM | relative to: DMSO | log2 fold change | 0.29 |
| Nc1ccn([C@@H]2O[C@H](COP(=O)(O)OP(=O)(O)OCC(O)CO)[C@@H](O)[C@H]2O)c(=O)n1 (stereo partly shown) | binding, MIDAS equilibrium dialysis LC-MS | A2AR-BRIL thermostabilized | concentration not given | relative to: no-protein control | log2 fold change | -0.252 |
| CO[C@H]1CC[C@H](N2C(=O)CNc3ncc(-c4ccc(C(C)(C)O)nc4)nc32)CC1 | flow cytometry | stimulated T cells, human, blood | 45 mg single dose, 24 h, median | relative to: baseline | p4EBP1 change from baseline | 3.6% |
| CC(Cc1ccc(O)c(O)c1)C(C)Cc1ccc(O)c(O)c1 (stereo not shown) | DPPH | methanol | concentration not given, 30 min |  | DPPH radical scavenging | 86.99 ± 0.06% |
| Cc1n[nH]c2ccc(-c3cc(OC[C@@H](N)Cc4ccccc4)cnc3-c3ccoc3)cc12 | kinase binding, competitor, MIB/MS competition, item: NPR1 | Candida albicans cell lysate | 1 µM | relative to: DMSO | log2 fold change | -0.0888 |
| O[C@H]1CCCN[C@@H]1CCCn1cnc2c(Cl)c(Cl)ccc21 | ELISA, item: Pro-C6 | healthy human volunteers, serum | 25 mg, day 1, multiple ascending dose |  | maximum reduction | 9.05% |
| Cc1cc([C@H]2C[C@H]3[C@@H](CF)SC(N)=N[C@@]3(c3ccc(F)cc3F)CO2)on1 | item: Aβx-40 | Mus musculus wild-type, cerebrospinal fluid | subcutaneous, 30 mg/kg, 9 h |  | Aβ40 level | 0.87 ng/mL |
| C=CCN(C)CCCCCCOc1ccc(C(=O)c2ccc(Br)cc2)c(F)c1 | cell viability | Mut6 cells, mouse | added: exogenous cholesterol | relative to: without cholesterol | fold IC50 increase | 479 fold |
| CC1(C)CCC2(CC1)N[C@@H](C(=O)N[C@@H]1CC[C@@H](C(N)=O)OC1)[C@H](c1ccnc(Cl)c1F)[C@]21C(=O)Nc2cc(Cl)ccc21 | RECIST | patients with solid tumours | dose not given | relative to: patients | non-evaluable patients | 25% |
| O=S(=O)(NCCNC/C=C/c1ccc(Br)cc1)c1cccc2cnccc12 |  | mouse zygotes | 20 µM, 72 h post-hCG |  | embryos reaching 8-cell | 0% |
| O=CNc1ccccc1C(=O)O | binding, MIDAS equilibrium dialysis LC-MS | A2AR-BRIL thermostabilized | concentration not given | relative to: no-protein control | log2 fold change | -0.223 |
| CC(C)(C)c1sc2ncnc(Oc3c(F)cccc3OC(F)(F)F)c2c1-c1ccc(Cl)cc1 | paw withdrawal latency | MrgprX1 mice, CCI model | oral, 30 mg/kg, 2 h, day 14 post-CCI, heat hyperalgesia |  | antihyperalgesia | > 100% |
| OC(CCN1CCCCC1)(c1ccccc1)C1CC2C=CC1C2 (stereo not shown) | resting-state EEG | healthy elderly humans | oral, 2 mg, eyes open, LS mean |  | power, theta EEG, Fz-Cz | 2.5 µV² |
| CC(C)NCC(O)c1ccc(O)c(O)c1 (stereo not shown) |  | ventricular cardiomyocytes, C57BL/6 mouse | dose not given, 0.352 s |  | sarcomere length | 1.72 µm |
| N#Cc1ccc2c(c1)[C@H]1CCCN(C(=O)c3ccc4[nH]cnc4c3)[C@H]1C2 |  | human, urine | 240 mg, 24 h, day 1 over day -1 | relative to: placebo and baseline | total urinary corticosteroids | 81.8 % change |

| Structure (SMILES) | assay | test system | conditions | how to read | measurement | result |
| --- | --- | --- | --- | --- | --- | --- |
| COc1cc(F)c([C@@H]2CNC(=O)[C@H]2NC(=O)Nc2ccccc2)c(F)c1 | terminal haemodynamics | rat, permanent coronary occlusion MI | 1 mg/kg, 1008 h, 6 weeks post-MI |  | stroke volume | 120 ± 26 µL |
| N#CC[C@H](C1CCCC1)n1cc(-c2ncnc3[nH]ccc23)cn1 |  | mouse, oxazolone dermatitis, plasma | oral, 90 mg/kg, once daily, unit not given | relative to: vehicle | IL6 level difference | -14.6 |
| NC(=O)c1cnc2[nH]ccc2c1N[C@@H]1[C@@H]2CC3C[C@H]1C[C@@](O)(C3)C2 | flow cytometry | Japanese healthy men, blood | oral, 10 mg twice daily, 72 h after day 7 dose | relative to: baseline | CD8+ effector T-cell change | 0.43% |
| Cn1cc([C@H]2C[C@H]3CSC(N)=N[C@@]3(c3ccc(F)cc3F)CO2)cn1 | item: Aβx-40 | Mus musculus wild-type, cerebrospinal fluid | subcutaneous, 10 mg/kg, 6 h |  | Aβ40 level | 1 ng/mL |
| NCCS(=O)(=O)O | binding, MIDAS equilibrium dialysis LC-MS | A2AR-BRIL thermostabilized | concentration not given | relative to: no-protein control | log2 fold change | -0.111 |
| Cc1cn(C(=O)c2c(-c3c(Cl)cc(Cl)cc3Cl)noc2C(C)(C)F)c2cccc(/C=C/C(=O)O)c12 | LC-MS/MS | human, resected tumour tissue, multiple samplings | 125 mg twice daily, end of treatment |  | D-2-hydroxyglutarate concentration | 22 pmol/mg and 21 pmol/mg and 15 pmol/mg |
| CCO[C@H]1CCN(Cc2c(OC)cc(C)c3[nH]ccc23)[C@H](c2ccc(C(=O)O)cc2)C1 |  | PNH patients, blood | oral, 25 mg then 100 mg, week 8, mean percent change | relative to: baseline | C3d-positive type III RBCs | -84% |
| O=P(O)(O)C(Cl)(Cl)P(=O)(O)O | immunostaining | mouse, SAH model, meninges | dose not given, day 7 | relative to: total area | GFAP-positive area | 6.38% |
| C[C@H](Oc1ccc(Br)cc1-c1ccon1)C(=O)O | peak grip force, handgrip dynamometry | healthy human | 400 mg, SAD |  | difference from placebo | 0.882 kg |
| COc1cc(Nc2ncc3c(n2)-c2ccc(Cl)cc2C(c2c(F)cccc2OC)=NC3)ccc1C(=O)O |  | mouse, NB-1771 neuroblastoma xenograft | 20.8 mg/kg | direction not given | median response score | 10 |
| FC(F)(F)Oc1cccc(-c2cnc3ccc(-c4ccncc4)nn23)c1 |  | MDA-MB-231 xenograft, NSG mouse | oral, 10 mg/kg daily, day 5 | higher = larger tumour | tumour size | 0.04 a.u. and 0.0506 a.u. and 0.0907 a.u. and 0.0557 a.u. and 0.0245 a.u. |
| c1ccc(-c2n[nH]cc2-c2ccnc3ccccc23)nc1 | kinase binding, competitor, MIB/MS competition, item: CKA2 | Candida albicans cell lysate | 100 nM | relative to: DMSO | log2 fold change | 1.41 |
| CC1(C)C(/C=C/C=C/C=C/C=C2\N(CCCCS(=O)(=O)O)c3ccc4ccccc4c3C2(C)C)=[N+](CCCCS(=O)(=O)[O-])c2ccc3ccccc3c21 |  | mouse MMTV-PyMT mammary tumour model | dose not given, 20 days post-surgery, after image-guided surgery |  | recurrent tumour volume | 159 mm³ |
| CCCCCN1C[C@H](O)[C@@H](O)[C@H](O)[C@@H]1CO | RNA sequencing, item: Hallmark apoptosis genes | Hexb-/- mouse, hippocampus | 30 mg/kg/day | direction not given | genomic disease score | 0.57 |
| CC(=O)Oc1cc2c(s1)CCN(C(C(=O)C1CC1)c1ccccc1F)C2 (stereo not shown) | platelet aggregation, light transmittance aggregometry | human, platelet-rich plasma | dose not given, 15 min, IPA above 90 %, added: TRAP 15 µM | relative to: patients | patients with IPA above threshold | 0% |
| N[C@@H](CC(=O)O)C(=O)N[C@@H](Cc1ccccc1)C(=O)O | binding, MIDAS equilibrium dialysis LC-MS | A2AR-BRIL thermostabilized | concentration not given | relative to: no-protein control | log2 fold change | -0.217 |
| Oc1ccc(Br)cc1C=NCCN1CCOCC1 | hydroxyl radical scavenging |  | 80 µM |  | inhibition | 15% |
| Cn1cc(Nc2nccc(-c3ccc4c(c3)CN(C3COC3)CC[C@H]4NC(=O)c3cn(C(C)(C)C)nn3)n2)cn1 | item: HGF Signaling | splenic B cells, mouse | in vivo, 30 mg/kg, IgD-activated B cells | relative to: vehicle, positive = activation | pathway activation z-score | 3.87 |
| CC1(C)CCC(c2ccc(Cl)cc2)=C(CN2CCN(c3ccc(C(=O)NS(=O)(=O)c4ccc(N[C@H](CCN5CCOCC5)CSc5ccccc5)c(S(=O)(=O)C(F)(F)F)c4)cc3)CC2)C1 | cell killing | canine lymph node CD3+ T cells, dog 30 | 24 h |  | EC50 | 21 nM |
| C[C@@H](NC(=O)N1C(=O)[C@H](Cc2ccnc(N)c2)[C@H]1C(=O)O)C1CCCCC1 |  | human | iv infusion, 0.3 mg/kg/h, 24 h | relative to: baseline | time to ACT Emax | 60 h |
| C[C@H]1C[C@H]2CSC(N)=N[C@@]2(c2nc(NC(=O)c3ccc(OC(F)F)cn3)cs2)CO1 | item: total Aβ | healthy adults, plasma | 200 mg single dose, 48 h post-dose | relative to: placebo | percent change from baseline | -62% |

For quick reference, copied from above:
| Structure (SMILES) | assay | test system | conditions | how to read | measurement | result |
| --- | --- | --- | --- | --- | --- | --- |
| CC(=O)Oc1cc2c(s1)CCN(C(C(=O)C1CC1)c1ccccc1F)C2 (stereo not shown) | platelet aggregation, light transmittance aggregometry | human, platelet-rich plasma | dose not given, 15 min, IPA above 90 %, added: TRAP 15 µM | relative to: patients | patients with IPA above threshold | 0% |
| C[C@@H](NC(=O)N1C(=O)[C@H](Cc2ccnc(N)c2)[C@H]1C(=O)O)C1CCCCC1 |  | human | iv infusion, 0.3 mg/kg/h, 24 h | relative to: baseline | time to ACT Emax | 60 h |
| Cc1noc(C)c1-c1cc(C(O)(c2ccccn2)c2ccccn2)c2nc(C3CC3)[nH]c2c1 | item: HEXIM1 expression | human, peripheral blood | 4 mg, day 8, 1604 study |  | maximum induction | 61% |
| c1ccc(-c2n[nH]cc2-c2ccnc3ccccc23)nc1 | kinase binding, competitor, MIB/MS competition, item: CKA2 | Candida albicans cell lysate | 100 nM | relative to: DMSO | log2 fold change | 1.41 |
| O[C@H]1CCCN[C@@H]1CCCn1cnc2c(Cl)c(Cl)ccc21 | ELISA, item: Pro-C6 | healthy human volunteers, serum | 25 mg, day 1, multiple ascending dose |  | maximum reduction | 9.05% |
| CCO[C@H]1CCN(Cc2c(OC)cc(C)c3[nH]ccc23)[C@H](c2ccc(C(=O)O)cc2)C1 |  | PNH patients, blood | oral, 25 mg then 100 mg, week 8, mean percent change | relative to: baseline | C3d-positive type III RBCs | -84% |
